Measured values gathered from unrelated publications.
Numbered parts are unrelated; each lists some results of a single study.

Study 1
Target: Histone acetyltransferase KAT6A, both winged helices, GST fusion (KAT6A, Homo sapiens, UniProt Q92794, residues 1-181)
Technique: protein binding microarray
Molecule type: double-stranded DNA, one strand shown
Matrix: in vitro
Concentration: not given
Notes: 8-mer, flanks averaged, mean of 2 arrays, mostly near background
Baseline: not given
Direction: higher = stronger binding
Residues (chain): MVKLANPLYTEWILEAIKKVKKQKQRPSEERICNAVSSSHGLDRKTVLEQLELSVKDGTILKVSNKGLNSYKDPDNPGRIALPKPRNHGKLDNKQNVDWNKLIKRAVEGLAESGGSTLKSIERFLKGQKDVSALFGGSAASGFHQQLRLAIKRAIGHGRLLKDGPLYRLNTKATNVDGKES
Sequence	E-score
ACCTGTAA	-0.024
AAAGGTGA	-0.177
GTGGGCCA	-0.0994
AAAGAGTC	-0.0522
GAAGATTC	-0.0308
ACTCAAAT	-0.131
CGCACGGA	0.311
CAATTCTC	-0.118
AAGTGGAC	-0.136
ATTCCCAA	-0.287
AAGTGAAT	-0.0534
ACAGCCTC	-0.116
AGTAAATG	-0.0471
CCCCTTTA	-0.199
GACTAGAA	-0.0962
ACACACCT	0.0692
ATGAAAAT	-0.118
ATGGCCAC	-0.0543
ATTGAGCA	-0.111
CGGACAAC	0.108
GCGTGTTA	0.206
ATGCGAAG	0.00306
ATTCTTAA	-0.157
ACCGTACG	0.284

Study 2
Target: Centromere-binding protein 1, full length, N-terminal tag (CBF1, Saccharomyces cerevisiae, UniProt P17106, residues 1-351)
UniProt P17106, sequence (whole entry, looked up): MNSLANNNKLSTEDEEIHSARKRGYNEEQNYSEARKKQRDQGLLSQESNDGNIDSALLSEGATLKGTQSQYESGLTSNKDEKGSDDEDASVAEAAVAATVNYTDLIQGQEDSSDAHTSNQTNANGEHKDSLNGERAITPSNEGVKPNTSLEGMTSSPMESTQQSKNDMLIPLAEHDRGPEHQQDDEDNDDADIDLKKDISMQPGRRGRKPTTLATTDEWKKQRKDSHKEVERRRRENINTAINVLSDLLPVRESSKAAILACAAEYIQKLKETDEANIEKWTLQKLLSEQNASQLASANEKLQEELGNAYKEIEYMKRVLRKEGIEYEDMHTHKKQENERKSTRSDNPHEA
Technique: protein-binding microarray
Molecule type: double-stranded DNA, one strand shown
Matrix: in vitro
Concentration: 0.8 µM
Notes: whole 60-bp probe, no competitor
Direction: higher = stronger binding
Shared flanks, not repeated: … GTCTTGATTCGCTTGACGCTGCTG
Sequence	fluorescence intensity
GAAATTGTCGCTCTCCACGCCACGCTCGAAGGATAG	533 a.u.
GAATTGTTCCACGATCACCTCATATCACCGTTATAG	501 a.u.
CTATGTTAATTGTATGGCGTGTGGCCTTGCTATTTC	540 a.u.
GAAGAATAAGCTGGTCATGATGTCGCTATTTCTTAG	626 a.u.
CTAGAGACCGTACCACACGTTTAGAGCAGCCAGTTC	530 a.u.
CTAATCACACGCTTGCACGTTGGTTCATATCGTTTC	587 a.u.
CCTAACTACTATAGTGATCGCAAATAGCTTCGTACA	522 a.u.
CTAGTGATACCGCGTCACATGACCATTTAAAAGTTC	13700 a.u.
GAATTTTGGTAGCGCCGCGTGGGAAACAATGCATAG	552 a.u.
CCTAACTACTATAGGAACGTGCCATAGCTTCGTACA	741 a.u.
GAACGCCACGATGATCGCACGTGCCGGCATTTATAG	10100 a.u.
CTAAGAAAAAGACGTGACGTTGTAACCGAGAGGTTC	876 a.u.
CTATGGATAGTGCACCACGAGACTTGGCATGATTTC	822 a.u.
CTACTTTATTTATCCAACGTGAACAAGTACTTTTTC	740 a.u.
CTAATATCTGACACGCACGTGATGACCACGTAATTC	7260 a.u.
TGTACGAAGCTATGTCATGTAATTATAGTAGTTAGG	500 a.u.
GAACCACAACTGGCTGAGATCACGTGAATGGCTTAG	18400 a.u.
GAATTCGTAAAACGTGACGACTTTCATAATCTCTAG	3540 a.u.
GAAGGCGGTTTTTCGCGTGTGACTCAATGTCGATAG	664 a.u.
CTAATAATGGTAGTAATGGTGATGAAATGTTGTTTC	503 a.u.
GAAGGGGCACAAATACAGGTGATTCGAGAAATATAG	631 a.u.
CTATGGGTATACAATCACGTGTACTATCAAATATTC	9380 a.u.
CTAATATTTTTCATCCACGTTTTTGTAGTTTATTTC	672 a.u.

Study 3
Target: Fragile X messenger ribonucleoprotein 1, C-terminal low-complexity region (Fmr1, Mus musculus, UniProt P35922)
Technique: RNA Bind-n-Seq
Molecule type: RNA
Matrix: in vitro
Concentration: 200 nM
Notes: whole 134-nt RNA, ends assumed
With: 150 mM KCl
Baseline: input library
Direction: higher = stronger binding
Shared flanks, not repeated: GGGAGUUCUACAGUCCGACGAUC … UGGAAUUCUCGGGUGUCAAGG
Sequence	log2 enrichment
UCCUGUGCUACACAUCGUAUGUACCGAAUCGGGUUUUUUUGGGAAAGGGUUUUUUUGGGAAAGUAUUAUGUUACGCCGUUCGGAUCUGCA	-0.107
UGUGGACGACAAUGAGGAGACCAUCAAAAAGCGGCUGGAGACCUAUUACAAGGCCACAGAACCUGUCAUCGCCUUCUAUGAGAAACGUGG	-0.733
UAACUUUAGAGGAGGAUCUGAUGGAUAUGGCAAUGGACGUGGAUUUGGGGAUGGCUAUAAUGGGUAUGGAGGAGGACCUGGAGGUGGCAA	0.324
CCUCAAGUCCUGUGCUACACAUCGUAUGUACCGAAUCGGAAAGGUGGAAAGGAAAGUAUUAUGUUACGCCGUUCGGAUCUGCACUUCCAG	0.0567
UUGUGAUUAAGAUUUGUUCUUUUUCUCCCCUCUCUAUAGGAAGAUGAUCCCUAUGAUCUUGAAGAUGUUUCUGCACAGAAAUGAGGGAAA	0.173
GUCCUGUGCUACACAUCGUAUGUACCGAAUCAAACCCAAAUUUUUAAACCCCCCCAAAAAAGUAUUAUGUUACGCCGUUCGGAUCUGCAC	0.056
AAGUCCUGUGCUACACAUCGUAUGUACCGAAUCGGAAAAAGGAAAAAGGUUUUUGGAAAGUAUUAUGUUACGCCGUUCGGAUCUGCACUU	-1.18
CAAGUCCUGUGCUACACAUCGUAUGUACCGAAUCGGGCCCCGGCCCCGGCCCCGGGAAAGUAUUAUGUUACGCCGUUCGGAUCUGCACUU	-0.564
AAGUCCUGUGCUACACAUCGUAUGUACCGAAUCAAAUUUUUAAAUUUAAACCCAAAAAAGUAUUAUGUUACGCCGUUCGGAUCUGCACUU	0.098
CUUUGGUUGACAGGAAGUUCCUUUUCCAGGCAGGUCCCGUUGCCACCUCCUGCUCACUCAGUCCCGGGCUCUGCCGAGUGGUCCUGGGAA	0.391
CCUCAAGUCCUGUGCUACACAUCGUAUGUACCGAAUCGGGAAGGAAGGAAGGAAAGUAUUAUGUUACGCCGUUCGGAUCUGCACUUCCAG	0.184
CCUGUGCUACACAUCGUAUGUACCGAAUCGGGGAAAAAAGGAAAAAAGGGGAAAAAAGGGAAAGUAUUAUGUUACGCCGUUCGGAUCUGC	-0.472
UUCCCUGUACCGGCAGAGUUCACAAACACAUUUGAAGAGGCUUUUUCUCAGGAUUCUUAACCUUCCCAAAGGAAGUCCCAUGGAUGGGUU	-1.02
UUUGAGGUCAAACGCCGCGGGGAACUGCAGCUGAUUAAGAUCUUCCAAUCCUCGGUGUUUGAGGCCUUCCUCAAGGGCAGCACGCUGGAA	-1.84

Study 4
Target: RNA binding protein fox-1 homolog 2, RRM domain, GST-SBP tag (RBFOX2, Homo sapiens, UniProt O43251-10, residues 100-194)
Technique: RNA Bind-n-Seq
Molecule type: RNA
Matrix: in vitro
Concentration: 365 nM
Notes: natural RNA segment, single round, ends assumed
Baseline: no-protein control
Direction: higher = stronger binding
Shared flanks, not repeated: GGGAGUUCUACAGUCCGACGAUC … UGGAAUUCUCGGGUGCCAA
Construct (chain): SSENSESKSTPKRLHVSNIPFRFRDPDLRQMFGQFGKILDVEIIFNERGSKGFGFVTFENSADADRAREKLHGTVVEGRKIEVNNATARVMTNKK
Sequence	RBNS enrichment (R)
UUUAAGGGUUGUGAGCCCCUUGGGGGUUCAGGGAACUGCUUGCCCAGGGUGCAGUGUGAGUGUGAUGGGCCACCGGGGCAAGAGGGAAGGUGACCGCCCAGCUCUCCCAC	1.46
AAUGACCCACAGUAGUCUUUAGUAAACUGUUGAGAAAUCUGGGUAAAAGGCUGCCUUCAAUUCUAAGCUUUGUUUUUUUGUGGUUUUUGUUAUUAUUUGUUUCUGUUGUU	1.55
GUGGCAUGACAUUCUGCAAUACUUUGCUGAAUUGAACACUAUUGUGUCUUAAAUACUUGCACUAAAUAGUGCACUGCAAGACCAGAAAAUUUUACAAUAUUUUUUCUUUA	1.13
UGCAGUUCAUUUCCCACUAACCAUGCAGGUGCACAUCACGGAAAUACCGGUUUAACUACUAGUGUGUUACUGCCUCAUUUAUCUACAUUAACUAGAACAGAAUGCUUACA	1.02
AACCCCUAGAGCAACCCCCUCUCCUAGCAUUGCCAAAUGCUGGUCUUGGUGAGGAUGGGUUUCAAACAGCACACUCCUCCCGGUGGAGGAAGAUUAACAACAGUCUCUCC	0.279
GUAGUCUUCCAAUUGCAGGAGAUCAGCCCUACAGUGUAUUCUACGUGAACCAACAGGGCCUGGCCUUCACUCCUCCAGGCCACAAUGCCCUGGGGUCAAGGGAAAGGAAC	0.407
CUUCAUCUGUUCCCGCCUCUGCCAUCUGCUACGGUGUCGUCAGUUGUAUGGCAUUAAUUUCCUGCCACUAGAGAUAUUUUGAAGAUUGCUUGAAUGCUGGUGUCUGUUAG	2.43
ACCUAAAGAUAAAACCAAUUCACAAACUGAAGGUAGCUUUUUAUUACUCCGUGGGGAGCAUGUACAGAGCUCUGUGUAUACACAGCUUCACACCCACCAGAUUGUUACUA	5.52
CAGGCGAGGACCCUGAAUCAUUUGGAGCCCAGAAGGAGGCAGACUGGCCAGGUCUCACCACCUCAGUGUGCAGUUCAACUCCAUGCCAUCCCAUCAAGAUGGGUUAGUAG	0.193
AAAUUUUUAAAUCUCCAACUUGCUGUUUCCAAAAAGAAGGUGCAAUAUCAUAUAUCAUCAGUUAGCAAUAUUAGCAUUUCAAUCAGUGAUUUGAAUGUUGAUACUUUUUU	0.721
GUGAGCUUUUCACAUUACCUUAUGUAUACAACAGGAGCUGCGUUGUUUUCUUCUUUUUCUUUUCCUUAUCUGUUGUCCAACAACAGUGCUGACUGUCCGGAUAAGAGCUG	0.362
AAGCCUUAAUGAACAGUGUAUAUACAUCUGUGUAUGCACACUCCACCCCAGAGUGUUUUCAGUGUGCCAGAGAAGCAGCUGUAGCGUUAGGACAUGAGCCUGUCUAGUGU	0.259

A few entries again (study 2):
Sequence	fluorescence intensity
CCTAACTACTATAGGAACGTGCCATAGCTTCGTACA	741 a.u.
GAACGCCACGATGATCGCACGTGCCGGCATTTATAG	10100 a.u.
CTAAGAAAAAGACGTGACGTTGTAACCGAGAGGTTC	876 a.u.
CTATGGATAGTGCACCACGAGACTTGGCATGATTTC	822 a.u.
CTACTTTATTTATCCAACGTGAACAAGTACTTTTTC	740 a.u.
CTAATATCTGACACGCACGTGATGACCACGTAATTC	7260 a.u.
TGTACGAAGCTATGTCATGTAATTATAGTAGTTAGG	500 a.u.
GAACCACAACTGGCTGAGATCACGTGAATGGCTTAG	18400 a.u.
GAATTCGTAAAACGTGACGACTTTCATAATCTCTAG	3540 a.u.
GAAGGCGGTTTTTCGCGTGTGACTCAATGTCGATAG	664 a.u.
CTAATAATGGTAGTAATGGTGATGAAATGTTGTTTC	503 a.u.
